Measured values of several laboratories.
Each line is one published result; not all experiments were run side by side. Values joined by “and” are separate records of one study, mostly repeats; a detail may differ. ± gives the spread as reported.
UniProt Q61205, sequence (whole entry, looked up): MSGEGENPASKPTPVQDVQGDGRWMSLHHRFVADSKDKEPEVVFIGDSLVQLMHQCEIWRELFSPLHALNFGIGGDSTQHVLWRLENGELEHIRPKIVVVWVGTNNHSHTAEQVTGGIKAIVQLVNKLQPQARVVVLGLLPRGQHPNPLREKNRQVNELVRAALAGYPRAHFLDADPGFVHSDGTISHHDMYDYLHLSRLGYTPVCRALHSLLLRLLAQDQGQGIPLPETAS
UniProt Q9Y6M4, sequence (whole entry, looked up): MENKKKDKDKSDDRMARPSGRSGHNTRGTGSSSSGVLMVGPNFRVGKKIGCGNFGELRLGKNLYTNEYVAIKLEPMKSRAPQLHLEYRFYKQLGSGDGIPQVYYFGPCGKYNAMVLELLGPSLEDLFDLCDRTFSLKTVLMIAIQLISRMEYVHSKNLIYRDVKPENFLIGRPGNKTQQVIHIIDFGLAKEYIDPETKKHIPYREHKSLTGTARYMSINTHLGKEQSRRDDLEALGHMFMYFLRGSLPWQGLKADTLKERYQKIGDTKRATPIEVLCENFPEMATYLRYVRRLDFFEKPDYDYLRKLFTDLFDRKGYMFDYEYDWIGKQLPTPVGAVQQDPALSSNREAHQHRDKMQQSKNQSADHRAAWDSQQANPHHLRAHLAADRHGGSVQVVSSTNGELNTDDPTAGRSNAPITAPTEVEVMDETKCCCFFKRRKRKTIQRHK
UniProt P06493, sequence (whole entry, looked up): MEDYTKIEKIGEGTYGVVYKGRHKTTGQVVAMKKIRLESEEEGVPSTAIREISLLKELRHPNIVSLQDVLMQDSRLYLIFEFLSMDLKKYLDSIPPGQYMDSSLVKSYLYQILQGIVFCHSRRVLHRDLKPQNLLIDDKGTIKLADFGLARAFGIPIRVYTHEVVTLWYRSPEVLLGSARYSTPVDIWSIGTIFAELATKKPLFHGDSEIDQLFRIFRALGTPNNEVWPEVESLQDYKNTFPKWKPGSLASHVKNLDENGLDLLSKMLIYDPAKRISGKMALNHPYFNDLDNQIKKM
UniProt Q00534, sequence (whole entry, looked up): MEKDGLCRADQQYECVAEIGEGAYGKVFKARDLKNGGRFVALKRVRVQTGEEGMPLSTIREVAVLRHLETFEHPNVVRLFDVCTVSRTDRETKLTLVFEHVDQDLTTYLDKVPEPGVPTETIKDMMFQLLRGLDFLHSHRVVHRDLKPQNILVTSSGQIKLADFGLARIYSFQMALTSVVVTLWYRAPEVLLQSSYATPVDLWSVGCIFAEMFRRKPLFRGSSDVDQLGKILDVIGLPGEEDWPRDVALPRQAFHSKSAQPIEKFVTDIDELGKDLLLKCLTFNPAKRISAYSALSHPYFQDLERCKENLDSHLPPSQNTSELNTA
UniProt O43293, sequence (whole entry, looked up): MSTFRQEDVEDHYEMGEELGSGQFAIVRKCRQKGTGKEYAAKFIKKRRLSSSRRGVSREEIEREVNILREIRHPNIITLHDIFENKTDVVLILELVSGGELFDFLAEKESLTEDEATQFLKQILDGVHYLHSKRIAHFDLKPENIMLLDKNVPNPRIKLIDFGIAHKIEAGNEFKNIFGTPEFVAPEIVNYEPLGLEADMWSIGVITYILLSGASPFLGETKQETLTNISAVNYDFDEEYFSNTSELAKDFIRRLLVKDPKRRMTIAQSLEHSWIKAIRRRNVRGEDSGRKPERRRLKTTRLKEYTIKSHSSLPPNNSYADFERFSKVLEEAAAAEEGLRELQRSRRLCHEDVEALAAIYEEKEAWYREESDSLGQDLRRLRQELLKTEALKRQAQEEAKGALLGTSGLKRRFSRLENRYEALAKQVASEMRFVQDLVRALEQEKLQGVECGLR
UniProt Q86Z02, sequence (whole entry, looked up): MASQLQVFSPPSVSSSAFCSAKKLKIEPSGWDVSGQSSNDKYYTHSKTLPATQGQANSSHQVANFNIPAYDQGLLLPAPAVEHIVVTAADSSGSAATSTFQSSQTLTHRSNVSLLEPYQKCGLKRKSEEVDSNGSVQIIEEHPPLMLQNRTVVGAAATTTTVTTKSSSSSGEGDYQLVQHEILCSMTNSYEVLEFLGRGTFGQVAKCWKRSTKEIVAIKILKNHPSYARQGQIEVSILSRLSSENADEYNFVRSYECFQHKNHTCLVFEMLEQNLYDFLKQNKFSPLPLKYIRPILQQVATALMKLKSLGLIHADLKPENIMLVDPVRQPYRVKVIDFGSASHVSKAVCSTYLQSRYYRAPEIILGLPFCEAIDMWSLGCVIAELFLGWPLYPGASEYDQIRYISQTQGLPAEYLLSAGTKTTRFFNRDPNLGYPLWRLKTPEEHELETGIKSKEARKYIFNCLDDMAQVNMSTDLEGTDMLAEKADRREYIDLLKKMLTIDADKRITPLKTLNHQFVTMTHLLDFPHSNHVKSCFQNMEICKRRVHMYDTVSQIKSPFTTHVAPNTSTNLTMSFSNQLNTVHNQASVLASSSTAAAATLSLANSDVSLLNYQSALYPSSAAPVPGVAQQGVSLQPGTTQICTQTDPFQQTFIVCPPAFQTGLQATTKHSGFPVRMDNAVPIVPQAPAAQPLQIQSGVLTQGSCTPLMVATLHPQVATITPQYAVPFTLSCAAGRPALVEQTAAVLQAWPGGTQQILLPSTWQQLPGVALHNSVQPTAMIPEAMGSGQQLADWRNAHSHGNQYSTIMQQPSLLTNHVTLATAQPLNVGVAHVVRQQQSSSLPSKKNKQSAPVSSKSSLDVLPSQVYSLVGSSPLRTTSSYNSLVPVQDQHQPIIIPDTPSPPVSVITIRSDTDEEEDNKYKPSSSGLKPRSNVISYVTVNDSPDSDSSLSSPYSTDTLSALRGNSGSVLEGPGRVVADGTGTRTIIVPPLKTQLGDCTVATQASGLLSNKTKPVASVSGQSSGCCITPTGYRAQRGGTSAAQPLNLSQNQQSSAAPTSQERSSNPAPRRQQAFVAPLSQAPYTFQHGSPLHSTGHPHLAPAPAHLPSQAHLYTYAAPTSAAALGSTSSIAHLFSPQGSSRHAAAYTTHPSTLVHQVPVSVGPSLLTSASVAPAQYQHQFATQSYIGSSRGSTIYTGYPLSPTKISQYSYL
UniProt P00519, sequence (whole entry, looked up): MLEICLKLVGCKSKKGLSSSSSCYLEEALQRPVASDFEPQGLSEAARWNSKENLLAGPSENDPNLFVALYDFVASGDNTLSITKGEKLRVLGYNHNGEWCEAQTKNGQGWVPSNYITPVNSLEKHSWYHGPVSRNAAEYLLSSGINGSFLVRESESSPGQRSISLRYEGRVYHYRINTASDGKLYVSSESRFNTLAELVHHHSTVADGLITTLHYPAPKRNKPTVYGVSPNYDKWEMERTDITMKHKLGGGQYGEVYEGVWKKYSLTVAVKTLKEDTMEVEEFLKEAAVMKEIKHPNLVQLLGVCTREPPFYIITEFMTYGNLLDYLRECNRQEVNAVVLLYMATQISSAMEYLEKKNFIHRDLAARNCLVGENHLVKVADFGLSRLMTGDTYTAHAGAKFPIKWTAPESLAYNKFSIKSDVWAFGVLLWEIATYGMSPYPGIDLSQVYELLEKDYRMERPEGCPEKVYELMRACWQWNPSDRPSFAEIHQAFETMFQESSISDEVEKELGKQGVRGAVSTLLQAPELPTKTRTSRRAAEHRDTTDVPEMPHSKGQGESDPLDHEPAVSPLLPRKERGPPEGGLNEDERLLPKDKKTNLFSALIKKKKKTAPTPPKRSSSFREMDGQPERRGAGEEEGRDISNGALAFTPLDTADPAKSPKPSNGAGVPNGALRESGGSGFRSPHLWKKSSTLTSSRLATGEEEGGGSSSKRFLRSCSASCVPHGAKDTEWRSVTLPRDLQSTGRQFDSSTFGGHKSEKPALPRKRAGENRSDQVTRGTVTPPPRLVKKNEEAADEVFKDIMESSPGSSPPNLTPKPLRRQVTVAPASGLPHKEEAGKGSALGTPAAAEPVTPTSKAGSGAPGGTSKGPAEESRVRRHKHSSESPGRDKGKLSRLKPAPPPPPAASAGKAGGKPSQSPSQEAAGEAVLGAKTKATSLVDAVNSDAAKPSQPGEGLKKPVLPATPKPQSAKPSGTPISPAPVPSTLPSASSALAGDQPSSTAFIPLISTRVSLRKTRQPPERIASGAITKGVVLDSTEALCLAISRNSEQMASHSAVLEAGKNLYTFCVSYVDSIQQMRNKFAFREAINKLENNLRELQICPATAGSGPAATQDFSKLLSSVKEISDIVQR
UniProt O75716, sequence (whole entry, looked up): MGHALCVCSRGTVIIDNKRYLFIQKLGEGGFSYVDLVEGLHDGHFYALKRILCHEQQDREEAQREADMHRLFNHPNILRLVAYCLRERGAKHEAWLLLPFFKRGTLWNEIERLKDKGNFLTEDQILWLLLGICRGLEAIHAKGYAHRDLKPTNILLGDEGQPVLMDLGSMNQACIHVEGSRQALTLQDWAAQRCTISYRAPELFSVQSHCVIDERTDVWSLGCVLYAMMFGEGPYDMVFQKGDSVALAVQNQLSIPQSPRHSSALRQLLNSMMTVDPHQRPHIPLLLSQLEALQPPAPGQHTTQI

The inhibition of `O=C(O)c1ccccc1/C=N/Nc1nc(-c2ccccc2Cl)cs1` is reported as -3.3% (Cyclin-dependent kinase 6, with cyclin D1 (CDK6, Homo sapiens, UniProt Q00534); enzyme activity, inhibitor; 1 µM).
`O=C1NC(=O)c2c1c1cc(F)c[n+]3c1c1c2c2cc(O)ccc2[n]1[Ru-4]312([N]=C=S)[S+]3CC[S+]1CC[S+]2CC3` (stereo not shown) has a remaining activity of 1% (DAPK3 (Homo sapiens, UniProt O43293); enzyme activity; 100 nM, human enzyme, added: 10 µM ATP; reference: untreated).
For `CN(C)[C@H]1C[C@@]23CC[C@@]4(O2)C(=CC[C@]2(C)[C@@H](c5ccc6ccncc6c5)CC[C@H]24)C=C3[C@@H](O)[C@@H]1O`, the inhibition was 3.2% (STK16 (Homo sapiens, UniProt O75716); ATP probe labelling, inhibitor, KiNativ profiling; 1 µM).
`COc1ccccc1-c1n[nH]c2nc(NC3CCN(C(=O)Cc4ccc(F)cc4F)CC3)ncc12` gave a relative abundance of 0.95 (bead binding, competition bead pull-down, refers to: LINJ.35.3120; Leishmania donovani axenic amastigote extract; 10 µM; reference: vehicle).
The inhibition of `CC(C)[C@H]1NC(=O)C[C@H]2/C=C/CCSSC[C@@H](NC1=O)C(=O)N[C@H](Cc1cccc3ccccc13)C(=O)NCC(=O)O2` is reported as 1.3% (CSNK1G3 (Homo sapiens, UniProt Q9Y6M4); enzyme activity, inhibitor; 10 µM).
The inhibition of `O=C(CN1CN(c2ccccc2)C2(CCN(C(=O)c3cnc4[nH]ncc4c3)CC2)C1=O)NCC(F)(F)F` is reported as less than 50% (EGFR (Homo sapiens, UniProt P00533, A750P/del747-749); inhibitor; concentration not given).
For `CS(C)(=O)=Nc1ccc(-c2ccc(-c3nc4cc(O[C@@H]5CO[C@H]6[C@@H]5OC[C@H]6O)[nH]c4cc3F)cc2)cc1`, the inhibition was -3% (Cyclin-dependent kinase 1, with cyclin B (CDK1, Homo sapiens, UniProt P06493); enzyme activity, inhibitor; 10 µM).
With `C[C@H](NCc1ccc(-c2ccc(C(F)(F)F)cc2)cc1)C(N)=O` the inhibition was 0% (BMPR2 (Homo sapiens, UniProt Q13873); cell-free assay, competition with immobilised ligand; 1 µM).
The inhibition of `COc1ccc(F)cc1S(=O)(=O)Nc1cnc2c(c1)C(=O)NCCO2` is reported as 9% (KATP potassium channel; radioligand binding; 10 µM).
`N[C@H](C(=O)N1CCCC1)C1CCN(c2nccc3c(-c4ncc(Cl)cc4Cl)cccc23)CC1` has an inhibition of -3.2% (ABL1 (Homo sapiens, UniProt P00519); kinase activity, inhibitor; 10 µM, added: ATP 1 mM).
`O=C1NC2(CC2)COc2ncc(F)cc2[C@H]2COCCN2c2ccn3ncc1c3n2` — result for “organ-to-brain weight ratio”: 649 ± 99.3% (Sprague-Dawley rat, male, liver; oral, 20 mg/kg/day, 4 weeks dosing, end of recovery).
`CN(/N=C/c1ccccc1C(=O)O)c1nc(-c2ccccc2Cl)cs1` gave an inhibition of -6.22% (HIPK1 (Homo sapiens, UniProt Q86Z02); enzyme activity, inhibitor; 1 µM).
`CC(C)CC(O)(CC(C)C)c1cn(C(=O)N2CCCC2)nn1`: “SILAC activity ratio” 1.27 and 1.31 and 1.23 and 1.24 and 1.28 and 1.22 and 1.21 (Platelet-activating factor acetylhydrolase IB subunit alpha1 (Pafah1b3, Mus musculus, UniProt Q61205); probe labelling, inhibitor, competitive ABPP-SILAC, refers to: Pafah1b3; mouse T cells; concentration not given, 4 h, single peptide; reference: treated over DMSO cells, lower = stronger inhibition).

Repeated from above:
The inhibition of `COc1ccc(F)cc1S(=O)(=O)Nc1cnc2c(c1)C(=O)NCCO2` is reported as 9% (KATP potassium channel; radioligand binding; 10 µM).
